Experimental data pooled from the literature.
Parts stem from different laboratories: compare values within a part only. Substitutions count along the parent as printed.

Set 1 — method: protein-binding microarray; form: double-stranded DNA, one strand shown; medium: in vitro; tested at: not given; reading: higher = stronger binding
Target: Protein max, full length (MAX, Homo sapiens, UniProt P61244-2, residues 1-151)
Notes: k-mer, scored over probes, only values ≥0.25
Oligonucleotide	E-score
ACCTGCAC	0.262
AACATATG	0.296
ACGACGTG	0.367
ACGCTGTG	0.252
CACGTTCG	0.296
CGTGTCAC	0.428
CACGTTCC	0.398
CCCCGCCC	0.265
CCCCAACC	0.304
AGCGCGTG	0.451
ATCACCTG	0.338
ACGCGTCT	0.278
CACCTGCC	0.343

Set 2 — method: RNA Bind-n-Seq; form: RNA; medium: in vitro; tested at: 1 µM; notes: whole 134-nt RNA, ends assumed; together with: 150 mM KCl; relative to: input library; reading: higher = stronger binding
Target: Ras GTPase-activating protein-binding protein 1, RRM domain (G3BP1, Homo sapiens, UniProt Q13283)
Chain of UniProt Q13283 (whole entry, looked up): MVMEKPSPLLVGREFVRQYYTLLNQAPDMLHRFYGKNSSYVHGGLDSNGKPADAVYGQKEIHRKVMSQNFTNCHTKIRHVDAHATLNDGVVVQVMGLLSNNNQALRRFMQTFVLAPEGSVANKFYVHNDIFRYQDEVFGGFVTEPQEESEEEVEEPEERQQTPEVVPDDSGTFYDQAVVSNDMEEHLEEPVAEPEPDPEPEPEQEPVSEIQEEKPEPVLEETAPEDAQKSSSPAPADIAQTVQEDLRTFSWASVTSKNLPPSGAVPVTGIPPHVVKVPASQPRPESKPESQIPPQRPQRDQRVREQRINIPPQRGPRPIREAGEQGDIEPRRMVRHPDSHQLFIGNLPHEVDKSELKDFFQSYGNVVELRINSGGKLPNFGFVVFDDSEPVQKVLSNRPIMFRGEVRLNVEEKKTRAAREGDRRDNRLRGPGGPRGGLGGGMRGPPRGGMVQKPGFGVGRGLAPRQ
Oligonucleotide	log2 enrichment
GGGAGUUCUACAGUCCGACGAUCGUCCUGUGCUACACAUCGUAUGUACCGAAUCGGGCCCCCGGGGCCCCCGGCCCCCGGGGAAAGUAUUAUGUUACGCCGUUCGGAUCUGCAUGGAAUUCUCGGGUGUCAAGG	-0.772
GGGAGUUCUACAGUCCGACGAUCGCAGGAAGAAAAAACAAAUGGAAAUGCUUCGGAUAGUGGCAGGGGUGGGGGUUGCUAAGGAAAGGGUGGGAUGGGAGUGGGUAAAGAGUUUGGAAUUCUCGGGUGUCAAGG	1.5
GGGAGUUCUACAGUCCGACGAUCUGGCCCUGGUGGCAUGCGGGGAGGAAGAGGUGGCCUCAUGGAUCGUGGUGGUCCCGUUGGAAUGUUCAGAGGUGGCCGUGGUGGAGACAGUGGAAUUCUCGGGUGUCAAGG	0.89
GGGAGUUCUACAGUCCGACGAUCUGUCUGGUGACAAGGAAGAGGAUGCUCCUCAUAGAGAAGAUUACUUUGAGCCCAUUUCUCCUGAUCGGAAUUCUGUUCCCCAGGAAGGGCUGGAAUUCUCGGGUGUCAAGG	-0.351
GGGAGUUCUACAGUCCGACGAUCGUCCUGUGCUACACAUCGUAUGUACCGAAUCGGCCCCCGGGCCCCCGGGGCCCCCGGGGAAAGUAUUAUGUUACGCCGUUCGGAUCUGCAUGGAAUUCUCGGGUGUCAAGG	-0.453
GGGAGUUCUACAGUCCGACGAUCUGGGAGGUGGAUUUUGUUUAUUUUUUUAGCUCAUUUCCAGGGGUGGGAAUUUUUUUUUAAUAUGUGUCAUGAAUAAAGUUGUCUUUGAAAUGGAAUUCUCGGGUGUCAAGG	2.07
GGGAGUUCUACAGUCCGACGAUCCUGUGCUACACAUCGUAUGUACCGAAUCGGGAAAAAAAGGGAAAAAAAGGGAAAAAAAGGGAAAGUAUUAUGUUACGCCGUUCGGAUCUGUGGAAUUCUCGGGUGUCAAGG	0.0593

Set 3 — method: protein binding microarray; form: double-stranded DNA, one strand shown; medium: in vitro; tested at: not given; relative to: not given; reading: higher = stronger binding
Target: Histone acetyltransferase KAT6A, winged helix 1, GST fusion (KAT6A, Homo sapiens, UniProt Q92794, residues 1-85)
Notes: 8-mer, flanks averaged, mean of 2 arrays, mostly near background
Construct (chain): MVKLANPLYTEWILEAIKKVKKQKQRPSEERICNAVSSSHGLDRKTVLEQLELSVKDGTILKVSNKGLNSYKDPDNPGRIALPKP
Oligonucleotide	E-score
TAACAGGA	-0.149
ACCTTAAG	-0.145
GCTAACAA	0.133
AATGAGGC	0.0559
CTGATTGC	-0.104
GATTGTGC	0.0348
GATCACTA	0.0281
ATCGTGTC	0.0565
ATCACATA	-0.11
GATTGCCA	-0.13
ATGAGGCC	0.0374
CGGGTTGA	0.278
ACGGAGTG	0.264

Set 4 — target: CCND3, cyclin fold, Cln2 fusion (human); method: yeast growth competition, sequencing; medium: yeast; notes: strong parent motif; relative to: not given; reading: higher = stronger binding
Parent: INSM1 docking peptide (human); PKAIRKLHFEDEV
Change	normalised enrichment score
PFAIRKLHFEDEV [K2F]	0.722
PKAIRKEHFEDEV [L7E]	0.264
PKAIRKLHREDEV [F9R]	0.0236
PKAIRKLHTEDEV [F9T]	-0.00348
PKAIRKLHFTDEV [E10T]	0.699
PKDIRKLHFEDEV [A3D]	-0.263
PKPIRKLHFEDEV [A3P]	0.382
PKAIRKLHFEWEV [D11W]	0.447
PKAIYKLHFEDEV [R5Y]	0.475
PKAIRKLHFDDEV [E10D]	0.883
PKAGRKLHFEDEV [I4G]	0.304
PKAIRKLHFEDHV [E12H]	1.14
PKAINKLHFEDEV [R5N]	-0.106
PKAIRKLHFKDEV [E10K]	0.304

Set 5 — method: RNA Bind-n-Seq; form: RNA; medium: in vitro; tested at: 365 nM; relative to: no-protein control; reading: higher = stronger binding
Target: RNA binding protein fox-1 homolog 2, RRM domain, GST-SBP tag (RBFOX2, Homo sapiens, UniProt O43251-10, residues 100-194)
Notes: natural RNA segment, single round, ends assumed
Construct (chain): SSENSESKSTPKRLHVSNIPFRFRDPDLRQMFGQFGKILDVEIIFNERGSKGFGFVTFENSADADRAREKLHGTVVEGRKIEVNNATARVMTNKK
Oligonucleotide	RBNS enrichment (R)
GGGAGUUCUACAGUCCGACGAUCAGUAUUUCAUAUAUAUACAUAUAUAUGCACCUAUAUAAUGUGUAUAUAUAUAAAAAGGCAGCCAUUGCUAUUGCAAUUCAUUUAAUAAAGCUUUAGUUUAAACAAAAGUAUGGAAUUCUCGGGUGCCAA	0.56
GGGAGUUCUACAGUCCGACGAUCAGAGAACUCAAACAGCCCUUUAAAGGAGCUCUCGGCAACCAACACUGCCACUCUAUGAGAAAACCCUCUGCCCUUUACUGCUGCUGGCUUGCCGUCUGGGAUGCUCAGUAUGGAAUUCUCGGGUGCCAA	0.327
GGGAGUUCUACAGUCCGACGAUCGUUACUUUUUAUAAUGUGAAAUAAUGAAUAAUGAAUUUACUCAAAAUAAAACAUAGGUUAAUGAGAUACCUGUGUUUGUGAAAAAAAGUCUUAAAUACUUUCCUGCAGUUUGGAAUUCUCGGGUGCCAA	0.496
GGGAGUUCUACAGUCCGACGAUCUUCGGAAGGUGUUUCUUGUACCUGAGGGAUCCUGCCCUGAAUCUCCAUAGUCUCCACUGUGAACUGAGGAGGGGAGGGGUGUGCUGGGGAAUAAAUCUUGUAUGAGAACAUGGAAUUCUCGGGUGCCAA	0.623
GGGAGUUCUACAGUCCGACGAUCAGAGAAGUAUGUGUUUGUUUUUAACAUGAUGCUAGUUAGAGAACAGUCUUAUCAGCAAAUUACUCUGGCCACUCUUGGAGCUAGAUAUUUUCCAAAUUUUCUCUGAAGGUUGGAAUUCUCGGGUGCCAA	0.537
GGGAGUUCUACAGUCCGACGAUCGUUCUUUGUCUGCCCAGCUAUUGGAGGAUGGGAAGUGGAGGGAGGGUCACUCUUUCCCUCUUACUGUAGUUUCCUAGAUUUAUCUGAGGAAAAGUGAGAUGUCUUCACGCUGGAAUUCUCGGGUGCCAA	0.306
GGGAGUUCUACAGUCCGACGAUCUUGUUCACUAUCAGUCUGGAGUGACUCUAUCUCCAGCAGUGCUCCCUGAGUGGCAGUGUUCCCUCAUCCACCCUGUUGCCCCUUAGCUAGAAGCUGUAAUGGAUGCUCUUUGGAAUUCUCGGGUGCCAA	0.368
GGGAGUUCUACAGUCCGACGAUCGGGGAGGAACUGCACCAGCGCACAAUCCUAAGAGCCUCGGCUCCUUGCCCAUUCACUUCAGUCUGCAGAAAGCCUCUUCCCUGGGUUGUCAGCCAGAAAAAAGGAGAGGUUGGAAUUCUCGGGUGCCAA	0.479
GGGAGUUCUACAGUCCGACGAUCUUGUUUGCUUCCCAAAGAUGUAUGUUUUGGAAAAAAAUUGCCUGUAGUCUGGUUGUGAAGAACACUGAGUCAGUUGAUGGUGUGUCUUGUCCUCCAGACCAGGCAGCAACUGGAAUUCUCGGGUGCCAA	3.4

Set 6 — method: competition protein-binding microarray; form: double-stranded DNA, one strand shown; medium: in vitro; tested at: 2 µM; together with: Cbf1 competitor, 0.05 µM; reading: higher = stronger binding
Target: Phosphate system positive regulatory protein PHO4, full length, GST-tagged (PHO4, Saccharomyces cerevisiae, UniProt P07270, residues 1-312)
Notes: whole 60-bp probe, lowest competitor level
Residues (chain): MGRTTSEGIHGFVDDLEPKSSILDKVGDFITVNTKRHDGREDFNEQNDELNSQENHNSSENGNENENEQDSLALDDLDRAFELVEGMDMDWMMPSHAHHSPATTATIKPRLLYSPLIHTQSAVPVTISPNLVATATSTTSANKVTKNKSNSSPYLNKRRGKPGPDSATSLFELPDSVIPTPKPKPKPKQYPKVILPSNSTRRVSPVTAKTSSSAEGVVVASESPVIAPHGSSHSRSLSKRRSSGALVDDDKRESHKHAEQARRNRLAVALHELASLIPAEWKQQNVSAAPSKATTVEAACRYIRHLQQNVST
Oligonucleotide	fluorescence intensity [a.u.]
TTGACCCGGAATCTATTCGTGACGGAAAGGTTAAGGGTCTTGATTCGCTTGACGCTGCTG	3770
AGGCAGAAACACTGACTCGTGGGTACGTCCACCCAGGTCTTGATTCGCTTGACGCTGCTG	11200
CGTCCTAGTGATTTTCACGTGGTATCCATGAGGAAGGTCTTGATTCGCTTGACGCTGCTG	14300
CTCACTCAGTACCATTACGTGTGAAAACTCCGCTGGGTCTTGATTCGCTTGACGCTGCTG	5560
TGCGCAACAACTTGTCACGGGACTTTATGTCTAGAAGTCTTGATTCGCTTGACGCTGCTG	5400
CTTCTGTAAATTTGAACAGTGGGTGGACGCGCCCCGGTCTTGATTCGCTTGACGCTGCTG	3650
CATACCCAACCTTGTGACGTGGGTGAAGATATTTGTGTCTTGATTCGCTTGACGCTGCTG	7260
CTATCTAGTACCCGCCCCGTGGCAAAAAAAGAAGACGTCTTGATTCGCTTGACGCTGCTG	12300
ATTCAATGTCGTTATGACCTGCTCGGGATGTTCTGGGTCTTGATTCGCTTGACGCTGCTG	3960
ACAAAAGCCTGAATTGACATGACAACGACAATAGGGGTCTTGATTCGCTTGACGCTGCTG	4080
TTATAAAGAAACCGTCACGTTCTGGATGCGACGTCGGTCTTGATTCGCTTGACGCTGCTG	12300

Set 7 — method: universal PBM; form: double-stranded DNA, one strand shown; medium: in vitro; tested at: not given; reading: higher = stronger binding
Target: Sal-like protein 4, full length isoform B (SALL4, Homo sapiens, UniProt Q9UJQ4-2, residues 1-616)
Notes: 8-mer, flanks averaged, mean of replicates
Target sequence (chain): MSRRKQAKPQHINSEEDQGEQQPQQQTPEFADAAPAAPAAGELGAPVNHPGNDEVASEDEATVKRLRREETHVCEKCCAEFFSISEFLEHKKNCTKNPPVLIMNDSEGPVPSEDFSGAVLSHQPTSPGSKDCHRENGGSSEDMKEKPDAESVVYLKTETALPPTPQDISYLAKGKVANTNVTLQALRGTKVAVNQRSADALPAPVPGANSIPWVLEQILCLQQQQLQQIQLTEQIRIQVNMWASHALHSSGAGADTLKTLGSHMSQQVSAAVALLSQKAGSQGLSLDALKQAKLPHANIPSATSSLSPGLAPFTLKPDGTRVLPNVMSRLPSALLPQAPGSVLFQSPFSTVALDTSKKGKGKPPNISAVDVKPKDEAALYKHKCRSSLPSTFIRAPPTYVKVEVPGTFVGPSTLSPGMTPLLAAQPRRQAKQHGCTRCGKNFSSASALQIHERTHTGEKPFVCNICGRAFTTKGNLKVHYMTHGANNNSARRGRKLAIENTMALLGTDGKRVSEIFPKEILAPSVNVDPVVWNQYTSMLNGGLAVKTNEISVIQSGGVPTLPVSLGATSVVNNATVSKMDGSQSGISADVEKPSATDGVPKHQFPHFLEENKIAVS
Oligonucleotide	E-score
ATTCGGTC	-0.127
CGGGGTTC	-0.297
CTCGGGCC	-0.307
CGTGCCCC	-0.281
AGGGTCGC	-0.24
GGGTTTGA	-0.0474
AGGCGCCG	-0.223
CATCGGAA	0.0258
CCTTAGAC	-0.0326
CCGGCCGA	-0.312
TTGCCAAA	0.0631
GCCCAATA	0.116
GCCGTCGC	-0.328
AAACCATA	0.325
